{"data": "Assay results pooled from the literature", "organism": "Pseudomonas aeruginosa", "note": "Compare with care: the assays were run in different laboratories."}
{"SMILES": "CC(C)(C)OCC1NC(=O)C(C(=O)NC(C(=O)NC2C(=O)N3C2SC(C)(C)C3C(=O)O)c2ccccc2)=C1O (stereo not drawn)", "system": "fpvB mutant", "MIC": "25 µg/mL"}
{"SMILES": "CC[C@H](C)[C@H](N)C(=O)N[C@@H](CCCNC(=N)N)C(=O)N[C@H](C(=O)N[C@@H](Cc1c[nH]c2ccccc12)C(=O)N[C@@H](Cc1ccccc1)C(=O)N[C@H](C(=O)N[C@@H](CCCCN)C(=O)N[C@H](C(=O)N[C@@H](CCCNC(=N)N)C(=O)N[C@@H](CCCCN)C(=O)N[C@@H](Cc1c[nH]c2ccccc12)C(=O)N[C@@H](CCCCN)C(=O)N[C@@H](C)C(=O)N[C@H](C(=O)N[C@@H](Cc1ccc(O)cc1)C(=O)N[C@@H](Cc1c[nH]cn1)C(=O)N[C@H](C(N)=O)[C@@H](C)O)[C@@H](C)CC)C(C)C)[C@@H](C)CC)C(C)C", "test": "broth dilution", "system": "ATCC 27853", "MIC": "100 µM"}
{"SMILES": "CC[C@@H](C)[C@@H](N)C(=O)N[C@@H](C(=O)N[C@H](Cc1ccc(O)cc1)C(=O)N[C@@H](C(=O)N[C@H](CCN)C(=O)N[C@H](CC(C)C)C(=O)N[C@H](CO)C(=O)N[C@H](CCN)C(=O)N[C@@H](C(=O)N[C@H](CCN)C(=O)N[C@H](Cc1c[nH]cn1)C(=O)N[C@H](CCN)C(=O)N[C@H](C)C(=O)N[C@H](CCN)C(=O)N[C@H](CCN)C(N)=O)[C@H](C)CC)[C@H](C)CC)[C@H](C)CC", "test": "broth microdilution", "system": "CDC 0246, Mueller-Hinton broth", "MIC": "4 µg/mL"}
{"SMILES": "CC(C)CC1NC(=O)C(C(=O)NC(C(=O)NC2C(=O)N3C2SC(C)(C)C3C(=O)O)c2ccccc2)=C1O (stereo not drawn)", "system": "pvdA mutant", "MIC": "25 µg/mL"}
{"SMILES": "CC[C@H](C)[C@H](NC(=O)CNC(=O)[C@H](CC(=O)O)NC(=O)[C@H](CCCNC(=N)N)NC(=O)[C@@H](NC(=O)[C@H](CC(N)=O)NC(=O)[C@H](CCCNC(=N)N)NC(=O)CNC(=O)[C@@H](NC(=O)[C@H](CCCCN)NC(=O)[C@H](CCC(=O)O)NC(=O)[C@@H](NC(=O)[C@H](CCCCN)NC(=O)[C@H](CCCCN)NC(=O)[C@H](Cc1ccccc1)NC(=O)[C@@H](NC(=O)[C@H](CCCCN)NC(=O)[C@H](Cc1c[nH]c2ccccc12)NC(=O)[C@@H](N)CCCNC(=N)N)[C@@H](C)CC)[C@@H](C)CC)C(C)C)C(C)C)C(=O)N[C@H](C(=O)N[C@@H](CCCCN)C(=O)N[C@@H](C)C(N)=O)[C@@H](C)CC", "system": "KCCM 11328, Mueller-Hinton broth", "conditions": "16 h, 37 °C", "how to read": "growth inhibition over 99%", "MIC": "32 µM"}
{"SMILES": "O=C(O)CN(CC(=O)O)CC(=O)O", "system": "IMP-7 producer", "conditions": "32 µg/mL, MIC of meropenem, together with: meropenem", "MIC": "16 µg/mL"}
{"SMILES": "CC[C@H](C)[C@H](NC(=O)[C@H](CC(C)C)NC(=O)[C@H](CCCCN)NC(=O)[C@@H](NC(=O)[C@H](C)NC(=O)[C@H](CCC(=O)O)NC(=O)[C@H](Cc1c[nH]cn1)NC(=O)[C@@H](NC(=O)[C@H](CCCCN)NC(=O)[C@H](CCC(N)=O)NC(=O)[C@H](Cc1ccccc1)NC(=O)[C@@H](NC(=O)[C@H](CCCCN)NC(=O)[C@@H](N)CCCCN)C(C)C)[C@@H](C)CC)[C@@H](C)CC)C(N)=O", "test": "broth microdilution", "system": "4891 resistant", "conditions": "18 h, 37 °C", "MIC": "32 µM"}
{"SMILES": "CC(C)(C)Oc1ccc(CC2NC(=O)C(C(=O)NC(C(=O)NC3C(=O)N4C3SC(C)(C)C4C(=O)O)c3ccccc3)=C2O)cc1 (stereo not drawn)", "system": "fpvA mutant", "MIC": "6.25 µg/mL"}
{"SMILES": "CC[C@H](C)[C@H](NC(=O)[C@H](Cc1c[nH]c2ccccc12)NC(=O)[C@@H](NC(=O)[C@H](Cc1c[nH]c2ccccc12)NC(=O)[C@@H]1CCCN1C(=O)[C@@H](NC(=O)[C@H](C)N)[C@@H](C)CC)[C@@H](C)CC)C(=O)N[C@@H](Cc1c[nH]c2ccccc12)C(=O)N[C@@H](CCCNC(=N)N)C(=O)N[C@@H](CC(C)C)C(=O)N[C@@H](CC(C)C)C(=O)N[C@@H](CCCNC(=N)N)C(=O)N[C@@H](CCCCN)C(=O)NCC(N)=O", "test": "broth microdilution", "system": "PAO1", "conditions": "18 h, 37 °C", "MIC": "15 µM"}
{"SMILES": "Cn1c(=O)cnc2ccc(F)c(CCNC[C@H]3CN(c4cnc5c(n4)NC(=O)CO5)C(=O)O3)c21", "system": "ATCC 27853", "MIC": "0.5 µg/mL"}
{"SMILES": "Cc1cc(Cl)cc2sc(N(CCCn3ccnc3)Cc3ccccc3)nc12", "system": "PAO1-Δ6", "MIC": "> 100 µM"}
{"SMILES": "CS(=O)(=O)Nc1ncn(-c2cc(F)c(COc3ccc(OS(=O)(=O)F)cc3)c(F)c2)n1", "MIC": "> 50 µM"}
{"SMILES": "CC(C)C1NC(=O)C(C(=O)NC(C(=O)NC2C(=O)N3C2SC(C)(C)C3C(=O)O)c2ccccc2)=C1O (stereo not drawn)", "system": "fpvA mutant", "MIC": "100 µg/mL"}
{"SMILES": "CC[C@H](C)[C@H](NC(=O)[C@H](CC(C)C)NC(=O)[C@@H](NC(=O)[C@@H](NC(=O)[C@@H](NC(=O)[C@H](CCCNC(=N)N)NC(=O)[C@H](CCCNC(=N)N)NC(=O)[C@H](CCCNC(=N)N)NC(=O)[C@@H](N)CCCNC(=N)N)C(C)C)[C@@H](C)CC)[C@@H](C)CC)C(=O)N[C@@H](CO)C(=O)N[C@@H](CC(C)C)C(=O)N[C@@H](CCCNC(=N)N)C(=O)N[C@@H](CCCNC(=N)N)C(=O)N[C@@H](CCCNC(=N)N)C(=O)N[C@@H](CCCNC(=N)N)C(=O)N[C@@H](Cc1ccccc1)C(=O)N[C@@H](CO)C(=O)N[C@@H](C)C(=O)N[C@@H](Cc1ccc(O)cc1)C(N)=O", "test": "broth microdilution", "system": "ATCC 27853", "conditions": "highest value reported", "MIC": "8 µM"}
{"SMILES": "C[C@@H](O)[C@H](NC(=O)[C@H](Cc1ccccc1)NC(=O)[C@H](Cc1c[nH]c2ccccc12)NC(=O)[C@H](Cc1ccccc1)NC(=O)[C@@H](NC(=O)[C@H](Cc1ccccc1)NC(=O)[C@H](CCCNC(=N)N)NC(=O)[C@@H](N)CCCNC(=N)N)[C@@H](C)O)C(=O)N[C@@H](Cc1ccccc1)C(=O)N[C@@H](CCCNC(=N)N)C(=O)N[C@@H](CCCNC(=N)N)C(N)=O", "test": "broth microdilution", "system": "27853, Mueller-Hinton broth", "conditions": "24 h, 37 °C, lowest concentration, 95% inhibition, together with: BSA", "MIC": "128 µM"}
{"SMILES": "CC1(C)S[C@@H]2[C@H](NC(=O)[C@H](N)c3ccccc3)C(=O)N2[C@H]1C(=O)O", "system": "pvdS mutant", "MIC": "200 µg/mL"}
{"SMILES": "CC[C@H](C)[C@H](NC(=O)[C@H](CCCCN)NC(=O)[C@@H](NC(=O)[C@@H](NC(=O)[C@H](CC(C)C)NC(=O)[C@H](CCCNC(=N)N)NC(=O)[C@@H](NC(=O)[C@H](CC(C)C)NC(=O)[C@H](CCCNC(=N)N)NC(=O)CNC(=O)[C@H](Cc1ccccc1)NC(=O)[C@@H](N)CCCNC(=N)N)[C@@H](C)CC)[C@@H](C)CC)C(C)C)C(=O)N[C@@H](C)C(=O)N[C@@H](CCCNC(=N)N)C(=O)N[C@@H](CCCNC(=N)N)C(=O)N[C@@H](C)C(=O)N[C@@H](Cc1c[nH]cn1)C(=O)N[C@@H](CCCNC(=N)N)C(=O)N[C@@H](C)C(=O)N[C@@H](CCCNC(=N)N)C(=O)N[C@@H](CO)C(=O)N[C@@H](C)C(=O)N[C@H](C(=O)N[C@@H](CCCCN)C(=O)N[C@@H](C)C(=O)N[C@@H](C)C(=O)N[C@@H](CO)C(=O)N[C@@H](CC(N)=O)C(=O)N[C@H](C(=O)N[C@@H](C)C(=O)N[C@@H](CCC(=O)O)C(=O)N[C@@H](CC(C)C)C(=O)N[C@@H](C)C(=O)N[C@@H](Cc1c[nH]cn1)C(=O)NCC(=O)N[C@@H](CCC(=O)O)C(=O)O)C(C)C)C(C)C", "test": "bacterial growth, broth microdilution", "system": "cation-adjusted Mueller Hinton broth", "conditions": "18 h, 37 °C", "MIC": "2 µM"}
{"SMILES": "CC[C@H](C)[C@H](NC(=O)[C@H](CC(C)C)NC(=O)[C@H](CCCNC(=N)N)NC(=O)[C@@H](N)CCCNC(=N)N)C(=O)N[C@@H](CC(C)C)C(=O)N[C@H](C(=O)N[C@@H](CCCCN)C(=O)N[C@H](C(=O)NCC(=O)N1CCC[C@H]1C(=O)N[C@H](C(=O)N[C@H](C(=O)N[C@@H](Cc1ccc(O)cc1)C(=O)N[C@@H](CCCCN)C(=O)N[C@@H](Cc1ccc(O)cc1)C(=O)N[C@@H](Cc1ccccc1)C(=O)N[C@@H](CCCCN)C(=O)N[C@@H](CCCCN)C(=O)N[C@@H](CCC(N)=O)C(=O)N[C@@H](CC(C)C)C(=O)N[C@@H](CC(C)C)C(=O)N[C@@H](CCCCN)C(=O)N[C@@H](CC(C)C)C(N)=O)[C@@H](C)CC)[C@@H](C)CC)[C@@H](C)O)[C@@H](C)O", "system": "KCTC 1637, Mueller-Hinton broth", "conditions": "24 h", "MIC": "8 µM"}
{"SMILES": "CC1NC(=O)C(C(=O)NC(C(=O)NC2C(=O)N3C2SC(C)(C)C3C(=O)O)c2ccccc2)=C1O (stereo not drawn)", "system": "fptA mutant", "MIC": "25 µg/mL"}
{"SMILES": "CC[C@H](C)[C@H](NC(=O)CNC(=O)[C@H](CC(=O)O)NC(=O)[C@H](CCCNC(=N)N)NC(=O)[C@@H](NC(=O)[C@H](CC(N)=O)NC(=O)[C@H](CCCNC(=N)N)NC(=O)CNC(=O)[C@@H](NC(=O)[C@H](CCCCN)NC(=O)[C@H](CCC(=O)O)NC(=O)[C@@H](NC(=O)[C@H](CCCCN)NC(=O)[C@H](CCC(=O)O)NC(=O)[C@H](Cc1ccccc1)NC(=O)[C@@H](NC(=O)[C@H](CCCCN)NC(=O)[C@H](Cc1c[nH]c2ccccc12)NC(=O)[C@@H](N)CCCNC(=N)N)[C@@H](C)CC)[C@@H](C)CC)C(C)C)C(C)C)C(=O)N[C@H](C(=O)N[C@@H](CCCCN)C(=O)N[C@@H](C)C(=O)NCC(=O)N1CCC[C@H]1C(=O)N[C@@H](C)C(=O)N[C@H](C(=O)N[C@@H](C)C(=O)N[C@H](C(=O)N[C@H](C(=O)NCC(=O)N[C@@H](CCC(N)=O)C(=O)N[C@@H](C)C(=O)N[C@@H](C)C(=O)N[C@H](C(=O)N[C@H](C(=O)N[C@H](C(=O)N[C@@H](CCCCN)C(N)=O)C(C)C)C(C)C)[C@@H](C)O)C(C)C)C(C)C)C(C)C)[C@@H](C)CC", "system": "KCCM 11328, Mueller-Hinton broth", "conditions": "16 h, 37 °C", "how to read": "growth inhibition over 99%", "MIC": "> 64 µM"}
{"SMILES": "CC[C@H](C)[C@H](NC(=O)[C@H](CCCCN)NC(=O)[C@H](CCCCN)NC(=O)CNC(=O)[C@H](CCCCN)NC(=O)[C@H](CC(C)C)NC(=O)[C@H](CCCCN)NC(=O)[C@H](CCCNC(=N)N)NC(=O)[C@@H](NC(=O)[C@H](CC(C)C)NC(=O)[C@H](CCCNC(=N)N)NC(=O)[C@@H](N)CCCNC(=N)N)[C@@H](C)CC)C(=O)N[C@@H](Cc1ccc(O)cc1)C(=O)N[C@@H](CC(C)C)C(=O)N[C@@H](Cc1ccc(O)cc1)C(=O)N[C@@H](Cc1ccccc1)C(=O)N[C@@H](CCCCN)C(=O)N[C@@H](CC(C)C)C(=O)N[C@@H](CCC(N)=O)C(=O)N[C@@H](CC(C)C)C(=O)N[C@@H](CC(C)C)C(=O)N[C@@H](CCCCN)C(=O)N[C@@H](CCCCN)C(N)=O", "system": "KCTC 1637, Mueller-Hinton broth", "conditions": "24 h", "MIC": "8 µM"}
{"note": "For quick reference, copied from above:"}
{"SMILES": "CC[C@H](C)[C@H](NC(=O)[C@H](CC(C)C)NC(=O)[C@H](CCCCN)NC(=O)[C@@H](NC(=O)[C@H](C)NC(=O)[C@H](CCC(=O)O)NC(=O)[C@H](Cc1c[nH]cn1)NC(=O)[C@@H](NC(=O)[C@H](CCCCN)NC(=O)[C@H](CCC(N)=O)NC(=O)[C@H](Cc1ccccc1)NC(=O)[C@@H](NC(=O)[C@H](CCCCN)NC(=O)[C@@H](N)CCCCN)C(C)C)[C@@H](C)CC)[C@@H](C)CC)C(N)=O", "test": "broth microdilution", "system": "4891 resistant", "conditions": "18 h, 37 °C", "MIC": "32 µM"}
{"SMILES": "CC[C@@H](C)[C@@H](N)C(=O)N[C@@H](C(=O)N[C@H](Cc1ccc(O)cc1)C(=O)N[C@@H](C(=O)N[C@H](CCN)C(=O)N[C@H](CC(C)C)C(=O)N[C@H](CO)C(=O)N[C@H](CCN)C(=O)N[C@@H](C(=O)N[C@H](CCN)C(=O)N[C@H](Cc1c[nH]cn1)C(=O)N[C@H](CCN)C(=O)N[C@H](C)C(=O)N[C@H](CCN)C(=O)N[C@H](CCN)C(N)=O)[C@H](C)CC)[C@H](C)CC)[C@H](C)CC", "test": "broth microdilution", "system": "CDC 0246, Mueller-Hinton broth", "MIC": "4 µg/mL"}
{"SMILES": "CC(C)(C)OCC1NC(=O)C(C(=O)NC(C(=O)NC2C(=O)N3C2SC(C)(C)C3C(=O)O)c2ccccc2)=C1O (stereo not drawn)", "system": "fpvB mutant", "MIC": "25 µg/mL"}
